# Results gathered from unrelated publications.
# Compare with care: the assays were run in different laboratories. “And” joins repeats or separate records; there may be more than shown. ± gives the spread as reported.
Substance,target or system,assay,test system,setting,how to read,quantity,result
C=CCc1ccc(O)c(-c2ccc(O)c(CC=C)c2)c1,,viral replication,SARS-CoV-2 trVLP system,100 µM,,inhibition,> 90%
mycosubtilin,,calcein leakage,POPC/SM/CHOL liposomes,"150 µM, fusion peptide, SARS-CoV-2",,maximum fusion,11 ± 5%
O=c1ccn([C@@H]2O[C@](F)(CO)[C@@H](O)[C@H]2O)c(=O)[nH]1,,,"Lassa virus Josiah strain, strain 13/N guinea pig",,,efficacious dose,< 0.5 mg/kg
C=CCc1ccc(O)c(-c2cc(CC=C)ccc2O)c1,,viral replication,SARS-CoV-2 trVLP system,100 µM,,inhibition,> 90%
Nc1ncnc2c([C@@H]3N[C@H](CO)[C@@H](O)[C@H]3O)c[nH]c12,Zaire ebolavirus,viral replication,"HeLa, Kikwit",1.6 µM,,inhibition,0%
CNC(=O)[C@@H](NC(=O)[C@H](CC(C)C)[C@H](O)C(=O)NO)C(C)(C)C,,prothrombin time,human platelet-poor plasma,"1 µM, with: AP venom",,inhibition,13.6% and 13.7% and 10%
COc1ccc(Nc2nc(Nc3ccc(OC)cc3OC)nc(N3CCOCC3)n2)c(OC)c1,SARS-CoV-2,"cytopathic effect, cell-based CPE",USA_WA1/2020,"round 2, 5-point dilution",,maximal response,90.2%
Cn1cnc(Cn2c(=O)[nH]/c(=N\c3cc4cn(C)nc4cc3Cl)n(Cc3cc(F)c(F)cc3F)c2=O)n1,,,"human, moderate renal impairment, plasma","oral, 375 mg single dose",,terminal half-life,54.7 h
O=C(O)c1cc(O)c2c(c1)C(=O)c1cccc(O)c1C2=O,,viral replication,SARS-CoV-2 trVLP system,100 µM,,inhibition,> 90%
C[n+]1ccc(-c2cc[n+](C)cc2)cc1,,,abcb1 -/- FVB mice paraquat poisoning,"dose not given, event flag 1",,survival time,6 days and 1 days and 3 days and 5 days and 2 days and 4 days
polymyxin B,,calcein leakage,POPC/SM/CHOL liposomes,"150 µM, fusion peptide, SARS-CoV-2",,leakage time constant,1 ± 1 min
CC[C@H](C)[C@H](NC(=O)[C@H](CC(C)C)NC(=O)[C@H](Cc1c[nH]c2ccccc12)NC(=O)[C@H](CCC(N)=O)NC(=O)[C@@H](NC(=O)[C@H](Cc1ccccc1)NC(=O)[C@H](C)NC(=O)[C@H](CCCCNC(=O)COCCOCCNC(=O)COCCOCCNC(=O)CC[C@H](NC(=O)CCCCCCCCCCCCCCCCCCC(=O)O)C(=O)O)NC(=O)[C@H](CCC(N)=O)NC(=O)[C@H](C)NC(=O)[C@@H](NC(=O)[C@H](CCCCN)NC(=O)[C@H](CC(=O)O)NC(=O)[C@H](CC(C)C)NC(=O)C(C)(C)NC(=O)[C@@H](NC(=O)[C@H](CO)NC(=O)[C@H](Cc1ccc(O)cc1)NC(=O)[C@H](CC(=O)O)NC(=O)[C@H](CO)NC(=O)[C@@H](NC(=O)[C@H](Cc1ccccc1)NC(=O)[C@@H](NC(=O)CNC(=O)[C@H](CCC(=O)O)NC(=O)C(C)(C)NC(=O)[C@@H](N)Cc1ccc(O)cc1)[C@@H](C)O)[C@@H](C)O)[C@@H](C)CC)[C@@H](C)CC)C(C)C)C(=O)N[C@@H](C)C(=O)NCC(=O)NCC(=O)N1CCC[C@H]1C(=O)N[C@@H](CO)C(=O)N[C@@H](CO)C(=O)NCC(=O)N[C@@H](C)C(=O)N1CCC[C@H]1C(=O)N1CCC[C@H]1C(=O)N1CCC[C@H]1C(=O)N[C@@H](CO)C(N)=O,,,"healthy human subjects, serum","1.5 mg multiple ascending, baseline",,total ALT,33.7 ± 18.5 U/L
ω-agatoxin IVA,,"cAMP signalling, high-content microscopy","DRG neurons, rat, spinal cord injury","dose not given, normalised 0 to 1, unit not given, with: forskolin, DAMGO 0.01","baseline: DAMGO maximum, higher = stronger inhibition",PKA-RII phosphorylation inhibition,1.24 and 0.957 and 1.03

# Repeated from above:
Substance,target or system,assay,test system,setting,how to read,quantity,result
C[n+]1ccc(-c2cc[n+](C)cc2)cc1,,,abcb1 -/- FVB mice paraquat poisoning,"dose not given, event flag 1",,survival time,6 days and 1 days and 3 days and 5 days and 2 days and 4 days
polymyxin B,,calcein leakage,POPC/SM/CHOL liposomes,"150 µM, fusion peptide, SARS-CoV-2",,leakage time constant,1 ± 1 min
